Measurements from different studies.
Every numbered part comes from another study and shows a few of its results, in no order. “And” joins repeats or separate records; there may be more than shown.
Chain of UniProt P10721 (whole entry, unmodified, looked up): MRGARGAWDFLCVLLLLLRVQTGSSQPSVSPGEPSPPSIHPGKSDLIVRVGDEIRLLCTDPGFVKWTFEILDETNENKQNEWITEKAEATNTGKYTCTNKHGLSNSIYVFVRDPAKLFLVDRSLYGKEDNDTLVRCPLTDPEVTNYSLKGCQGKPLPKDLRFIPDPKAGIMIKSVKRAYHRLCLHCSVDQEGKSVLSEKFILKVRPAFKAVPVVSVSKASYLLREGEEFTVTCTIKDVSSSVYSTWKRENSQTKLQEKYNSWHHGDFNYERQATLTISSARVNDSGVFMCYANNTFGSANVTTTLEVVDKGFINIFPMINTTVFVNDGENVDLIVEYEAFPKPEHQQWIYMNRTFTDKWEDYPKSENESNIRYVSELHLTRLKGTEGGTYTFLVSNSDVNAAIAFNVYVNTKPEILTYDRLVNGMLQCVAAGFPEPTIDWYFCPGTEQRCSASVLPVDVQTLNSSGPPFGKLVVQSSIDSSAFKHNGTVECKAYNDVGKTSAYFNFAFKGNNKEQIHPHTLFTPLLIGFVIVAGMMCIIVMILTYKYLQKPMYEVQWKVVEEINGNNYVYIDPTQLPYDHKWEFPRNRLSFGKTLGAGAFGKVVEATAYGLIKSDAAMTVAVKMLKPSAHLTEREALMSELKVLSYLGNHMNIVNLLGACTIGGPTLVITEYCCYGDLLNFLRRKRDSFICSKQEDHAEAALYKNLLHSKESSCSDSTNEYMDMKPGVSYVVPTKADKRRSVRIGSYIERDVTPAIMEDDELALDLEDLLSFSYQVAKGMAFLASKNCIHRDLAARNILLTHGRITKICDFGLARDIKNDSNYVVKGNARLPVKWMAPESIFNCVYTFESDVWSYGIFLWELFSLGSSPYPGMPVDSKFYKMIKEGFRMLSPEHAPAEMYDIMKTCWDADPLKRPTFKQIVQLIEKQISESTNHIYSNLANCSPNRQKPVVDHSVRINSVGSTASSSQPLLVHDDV
Chain of UniProt P49759 (whole entry, looked up): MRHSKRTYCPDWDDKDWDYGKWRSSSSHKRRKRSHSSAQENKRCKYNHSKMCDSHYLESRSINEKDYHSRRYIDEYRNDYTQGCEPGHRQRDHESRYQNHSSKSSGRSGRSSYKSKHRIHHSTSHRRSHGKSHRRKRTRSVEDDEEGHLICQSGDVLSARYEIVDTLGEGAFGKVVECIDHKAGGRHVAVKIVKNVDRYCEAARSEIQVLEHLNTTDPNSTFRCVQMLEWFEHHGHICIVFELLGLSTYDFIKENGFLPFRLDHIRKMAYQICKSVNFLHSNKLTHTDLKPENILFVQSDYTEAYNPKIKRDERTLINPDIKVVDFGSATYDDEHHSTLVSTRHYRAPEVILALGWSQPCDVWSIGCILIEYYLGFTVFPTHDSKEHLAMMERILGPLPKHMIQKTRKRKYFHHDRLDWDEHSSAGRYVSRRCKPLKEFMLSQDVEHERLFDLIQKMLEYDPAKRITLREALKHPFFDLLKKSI
Chain of UniProt Q9C098 (whole entry, looked up): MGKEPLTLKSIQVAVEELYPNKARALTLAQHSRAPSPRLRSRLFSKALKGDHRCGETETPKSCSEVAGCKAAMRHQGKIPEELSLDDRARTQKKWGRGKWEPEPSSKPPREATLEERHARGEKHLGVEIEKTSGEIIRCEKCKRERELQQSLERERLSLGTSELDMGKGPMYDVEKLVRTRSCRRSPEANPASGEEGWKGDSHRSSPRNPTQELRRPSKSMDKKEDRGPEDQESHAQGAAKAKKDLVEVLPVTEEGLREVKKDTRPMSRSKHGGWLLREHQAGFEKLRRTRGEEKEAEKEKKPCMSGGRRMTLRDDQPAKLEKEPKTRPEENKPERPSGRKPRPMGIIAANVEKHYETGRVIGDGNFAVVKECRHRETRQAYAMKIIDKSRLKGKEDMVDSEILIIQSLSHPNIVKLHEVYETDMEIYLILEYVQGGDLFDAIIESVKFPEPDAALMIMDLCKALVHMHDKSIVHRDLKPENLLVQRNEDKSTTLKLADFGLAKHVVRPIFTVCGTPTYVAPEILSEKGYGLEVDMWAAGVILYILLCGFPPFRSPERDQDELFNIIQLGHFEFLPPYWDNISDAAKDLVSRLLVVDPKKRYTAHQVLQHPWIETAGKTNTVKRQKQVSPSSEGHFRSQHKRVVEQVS
Chain of UniProt O00329 (whole entry, looked up): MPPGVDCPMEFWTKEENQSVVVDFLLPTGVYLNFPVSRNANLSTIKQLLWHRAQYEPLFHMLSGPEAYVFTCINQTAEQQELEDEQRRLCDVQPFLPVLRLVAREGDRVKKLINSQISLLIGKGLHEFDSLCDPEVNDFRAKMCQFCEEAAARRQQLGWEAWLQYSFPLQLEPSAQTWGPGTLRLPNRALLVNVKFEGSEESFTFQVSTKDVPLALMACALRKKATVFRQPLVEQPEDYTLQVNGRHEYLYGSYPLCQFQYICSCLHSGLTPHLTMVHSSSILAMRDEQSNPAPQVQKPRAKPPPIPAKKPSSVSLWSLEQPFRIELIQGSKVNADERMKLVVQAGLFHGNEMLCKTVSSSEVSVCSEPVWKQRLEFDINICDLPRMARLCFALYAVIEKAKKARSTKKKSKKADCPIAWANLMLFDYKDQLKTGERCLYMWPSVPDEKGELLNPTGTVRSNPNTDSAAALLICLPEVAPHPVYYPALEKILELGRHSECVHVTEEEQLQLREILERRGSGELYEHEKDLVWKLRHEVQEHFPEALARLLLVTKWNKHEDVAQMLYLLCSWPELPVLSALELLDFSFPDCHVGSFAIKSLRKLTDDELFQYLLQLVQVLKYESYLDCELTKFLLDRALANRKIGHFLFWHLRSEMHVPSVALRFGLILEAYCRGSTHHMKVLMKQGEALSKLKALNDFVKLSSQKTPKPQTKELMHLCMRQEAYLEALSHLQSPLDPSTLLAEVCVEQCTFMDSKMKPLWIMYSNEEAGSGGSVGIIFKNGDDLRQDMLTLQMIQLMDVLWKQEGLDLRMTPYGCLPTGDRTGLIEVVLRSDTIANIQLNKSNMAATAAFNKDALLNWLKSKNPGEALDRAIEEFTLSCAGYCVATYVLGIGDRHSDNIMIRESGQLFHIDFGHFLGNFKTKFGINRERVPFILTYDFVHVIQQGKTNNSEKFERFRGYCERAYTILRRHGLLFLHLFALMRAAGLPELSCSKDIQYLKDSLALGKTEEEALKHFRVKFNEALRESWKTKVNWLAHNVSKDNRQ
Chain of UniProt Q9NRM7 (whole entry, looked up): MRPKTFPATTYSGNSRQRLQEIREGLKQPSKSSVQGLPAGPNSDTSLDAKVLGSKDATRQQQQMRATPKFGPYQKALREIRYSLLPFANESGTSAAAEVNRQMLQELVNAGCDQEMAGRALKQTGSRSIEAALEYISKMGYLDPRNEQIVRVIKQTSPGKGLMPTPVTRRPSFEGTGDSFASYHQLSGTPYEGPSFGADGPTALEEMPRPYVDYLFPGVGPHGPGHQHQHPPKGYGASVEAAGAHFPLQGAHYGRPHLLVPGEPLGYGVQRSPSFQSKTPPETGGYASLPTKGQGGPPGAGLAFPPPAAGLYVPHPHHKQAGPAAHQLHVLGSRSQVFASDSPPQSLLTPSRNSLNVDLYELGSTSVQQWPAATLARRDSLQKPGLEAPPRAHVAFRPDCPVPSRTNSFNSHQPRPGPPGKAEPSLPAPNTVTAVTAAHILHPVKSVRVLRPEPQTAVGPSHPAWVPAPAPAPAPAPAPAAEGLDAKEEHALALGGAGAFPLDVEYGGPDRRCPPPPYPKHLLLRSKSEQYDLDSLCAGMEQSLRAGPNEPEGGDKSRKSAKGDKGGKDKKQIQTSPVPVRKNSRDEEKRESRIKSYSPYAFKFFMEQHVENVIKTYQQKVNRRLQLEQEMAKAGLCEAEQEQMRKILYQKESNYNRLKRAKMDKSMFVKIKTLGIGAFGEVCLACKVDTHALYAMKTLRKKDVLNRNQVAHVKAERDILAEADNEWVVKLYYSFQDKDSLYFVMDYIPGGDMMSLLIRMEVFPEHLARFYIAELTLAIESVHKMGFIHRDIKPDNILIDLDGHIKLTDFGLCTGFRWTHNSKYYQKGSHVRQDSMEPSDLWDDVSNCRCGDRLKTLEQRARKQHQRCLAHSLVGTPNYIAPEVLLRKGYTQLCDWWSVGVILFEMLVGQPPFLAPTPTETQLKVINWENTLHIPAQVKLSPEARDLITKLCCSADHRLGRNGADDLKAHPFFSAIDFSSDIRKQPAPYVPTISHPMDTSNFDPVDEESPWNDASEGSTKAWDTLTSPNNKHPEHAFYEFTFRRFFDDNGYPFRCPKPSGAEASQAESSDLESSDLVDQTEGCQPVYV

Sample 1
Target: Mitogen-activated protein kinase kinase kinase 20 (MAP3K20, Homo sapiens, UniProt Q9NYL2)
Chain of UniProt Q9NYL2 (whole entry, looked up): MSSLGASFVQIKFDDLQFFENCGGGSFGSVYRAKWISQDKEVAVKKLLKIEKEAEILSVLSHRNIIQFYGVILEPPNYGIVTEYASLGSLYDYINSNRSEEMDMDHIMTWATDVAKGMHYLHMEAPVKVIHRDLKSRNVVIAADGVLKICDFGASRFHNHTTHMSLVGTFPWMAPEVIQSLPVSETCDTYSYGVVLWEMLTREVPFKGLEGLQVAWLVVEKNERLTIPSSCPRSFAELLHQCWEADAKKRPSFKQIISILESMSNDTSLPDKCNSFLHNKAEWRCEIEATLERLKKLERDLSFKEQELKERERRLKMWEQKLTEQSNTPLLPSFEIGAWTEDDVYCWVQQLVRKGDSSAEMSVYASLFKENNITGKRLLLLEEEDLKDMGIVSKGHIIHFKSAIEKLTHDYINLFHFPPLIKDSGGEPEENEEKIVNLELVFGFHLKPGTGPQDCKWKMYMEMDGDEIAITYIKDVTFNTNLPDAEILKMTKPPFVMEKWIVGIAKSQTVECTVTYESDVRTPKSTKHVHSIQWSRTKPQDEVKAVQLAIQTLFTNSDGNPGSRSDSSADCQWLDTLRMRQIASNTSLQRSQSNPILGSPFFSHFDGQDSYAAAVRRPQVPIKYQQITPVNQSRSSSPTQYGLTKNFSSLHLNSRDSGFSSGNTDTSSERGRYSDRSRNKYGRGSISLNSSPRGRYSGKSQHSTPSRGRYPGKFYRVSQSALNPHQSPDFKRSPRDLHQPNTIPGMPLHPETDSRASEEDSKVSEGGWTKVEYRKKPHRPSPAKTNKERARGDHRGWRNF
Read-out: enzyme activity
Action: inhibitor
Concentration: 0.5 µM
Baseline: control
SMILES | remaining activity [%]
O=c1cc(-c2cccc3c2Sc2ccccc2S3)oc(N2CCOCC2)c1 | 100
COc1cc2ncnc(Nc3ccc(O)c(Br)c3)c2cc1OC | 89
O=C(NC(NC(=S)Nc1ccc(F)c([N+](=O)[O-])c1)C(Cl)(Cl)Cl)C(c1ccccc1)c1ccccc1 (stereo not shown) | 98.6
N#Cc1c(NC(=O)c2cccc3ccccc23)sc2c1CCCC2 | 93.2
Nc1cccc(-c2cc3c(Oc4cccc(O)c4)ncnc3[nH]2)c1 | 13.9
COc1cc2c(cc1OC)-c1[nH]nc(Nc3cccc(F)c3)c1C2 | 44.7
Cc1cn(-c2cc(NC(=O)c3ccc(C)c(Nc4nccc(-c5cccnc5)n4)c3)cc(C(F)(F)F)c2)cn1 | 17.8
CN([C@@H](Cc1ccc(OS(=O)(=O)c2cccc3cnccc23)cc1)C(=O)N1CCN(c2ccccc2)CC1)S(=O)(=O)c1cccc2cnccc12 | 103
O=C(Nc1cccc(Nc2nccc(Nc3cccc(C(F)(F)F)c3)n2)c1)C1CC1 | 110
C[C@@H]1CCN(C(=O)CC#N)C[C@@H]1N(C)c1ncnc2[nH]ccc12 | 98.2
Cn1nc2c3c(cccc31)C(=O)c1ccccc1-2 | 83.1
Ic1cccc(CSc2nnc(-c3ccncc3)o2)c1 | 96.7
CCN(CC)CCNC(=O)c1c(C)[nH]c(/C=C2\C(=O)Nc3ccc(Cl)cc32)c1C | 95.8

Sample 2
SMILES: NS(=O)(=O)c1cc(NC(=O)C2(c3ccccc3Cl)CC2)ccc1Oc1cccc(Cl)c1
Read-out: cell-free assay
Method: competition with immobilised ligand
Concentration: 1 µM
target | remaining binding
CIT (Homo sapiens, UniProt O14578) | 78%
KIT (Homo sapiens, UniProt P10721) | 90%
Tyrosine-protein kinase ABL1, non-phosphorylated (ABL1, Homo sapiens, UniProt P00519) | 64%
ROCK1 (Homo sapiens, UniProt Q13464) | 100%
AKT1 (Homo sapiens, UniProt P31749) | 78%
PRKG1 (Homo sapiens, UniProt Q13976) | 91%
STK4 (Homo sapiens, UniProt Q13043) | 73%
ERBB3 (Homo sapiens, UniProt P21860) | 84%
LATS2 (Homo sapiens, UniProt Q9NRM7) | 68%
SRPK2 (Homo sapiens, UniProt P78362) | 100%
BRSK1 (Homo sapiens, UniProt Q8TDC3) | 82%
KIT (Homo sapiens, UniProt P10721, L576P) | 89%
DCLK3 (Homo sapiens, UniProt Q9C098) | 56%
PIK3CD (Homo sapiens, UniProt O00329) | 99%
Ribosomal protein S6 kinase alpha-4, C-terminal kinase domain (RPS6KA4, Homo sapiens, UniProt O75676) | 89%
MET (Homo sapiens, UniProt P08581) | 81%
CLK1 (Homo sapiens, UniProt P49759) | 59%

Mixed results
SMILES | tested on | assay | test system | conditions | how to read | measurement | result
CCC[C@@H]1NC(=O)CSC[C@@H](C(=O)OCC)N(C)C(=O)[C@H](CC(C)C)NC(=O)[C@H](C)N(C)C(=O)[C@@H](CC(C)C)NC(=O)[C@H](C)N(C)C(=O)[C@H]2CCCN2C(=O)[C@@H](CC(C)C)NC(=O)CN(C)C1=O |  |  | hydrocarbon/water |  |  | logD | 1.07
O=C1CCC(N2Cc3cc(C4CCN(Cc5ccccc5)CC4)ccc3C2=O)C(=O)N1 (stereo not shown) |  |  | male ICR mice, plasma | oral, 3.0 mg/kg |  | oral bioavailability | 64.4% and 69.9%
CC(C)(C)c1cnc(CSc2cnc(NC(=O)C3CCN(CCCCSc4cccc5c4C(=O)N(C4CCC(=O)NC4=O)C5=O)CC3)s2)o1 (stereo not shown) | HH | CCK-8 |  | 10 nM |  | viability | 100%
COCc1cc(C(=O)Nc2cc([C@H]3CC[C@@H](OC(=O)NC(C)C)C3)[nH]n2)n(C)n1 | NCI-H1048 |  |  | concentration not given, 6 days, with: CDK2 inhibitor 500 nM | baseline: DMSO | cell count | 0.345 and 0.306 and 0.294

Excerpt of the above (mixed results):
SMILES | tested on | assay | test system | conditions | how to read | measurement | result
CCC[C@@H]1NC(=O)CSC[C@@H](C(=O)OCC)N(C)C(=O)[C@H](CC(C)C)NC(=O)[C@H](C)N(C)C(=O)[C@@H](CC(C)C)NC(=O)[C@H](C)N(C)C(=O)[C@H]2CCCN2C(=O)[C@@H](CC(C)C)NC(=O)CN(C)C1=O |  |  | hydrocarbon/water |  |  | logD | 1.07
O=C1CCC(N2Cc3cc(C4CCN(Cc5ccccc5)CC4)ccc3C2=O)C(=O)N1 (stereo not shown) |  |  | male ICR mice, plasma | oral, 3.0 mg/kg |  | oral bioavailability | 64.4% and 69.9%
CC(C)(C)c1cnc(CSc2cnc(NC(=O)C3CCN(CCCCSc4cccc5c4C(=O)N(C4CCC(=O)NC4=O)C5=O)CC3)s2)o1 (stereo not shown) | HH | CCK-8 |  | 10 nM |  | viability | 100%
COCc1cc(C(=O)Nc2cc([C@H]3CC[C@@H](OC(=O)NC(C)C)C3)[nH]n2)n(C)n1 | NCI-H1048 |  |  | concentration not given, 6 days, with: CDK2 inhibitor 500 nM | baseline: DMSO | cell count | 0.345 and 0.306 and 0.294
